Measured values from different studies.
Each numbered part is a random draw from the data of one study; scales do not carry over between parts. Changes are numbered by the printed parent chain.

Block 1 — method: DHFR PCA, deep sequencing; matrix: yeast; with: (+)-ABA 0.0091 µM; baseline: wild-type fitted maximum; direction: higher = stronger binding
Target: ABI1, truncated, D143A, DHFR fusion (Arabidopsis thaliana)
Setting: methotrexate growth selection, single substitutions
Starting sequence: PYL1, truncated, DHFR fusion (Arabidopsis thaliana); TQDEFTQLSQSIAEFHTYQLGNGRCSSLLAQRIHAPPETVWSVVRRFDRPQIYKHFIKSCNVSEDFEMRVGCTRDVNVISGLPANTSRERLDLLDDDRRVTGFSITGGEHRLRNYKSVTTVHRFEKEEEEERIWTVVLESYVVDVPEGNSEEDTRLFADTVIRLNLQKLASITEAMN; partner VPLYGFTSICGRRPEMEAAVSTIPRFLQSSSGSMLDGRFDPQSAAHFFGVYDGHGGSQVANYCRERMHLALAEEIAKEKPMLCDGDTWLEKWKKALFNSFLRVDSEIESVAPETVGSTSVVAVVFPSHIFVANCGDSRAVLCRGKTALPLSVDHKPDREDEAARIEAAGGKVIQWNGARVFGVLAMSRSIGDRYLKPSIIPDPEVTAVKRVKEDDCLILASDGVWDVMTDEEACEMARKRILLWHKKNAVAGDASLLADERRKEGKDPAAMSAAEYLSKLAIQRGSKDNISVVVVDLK
Variant	relative binding score
A30M	38%
G148K	-0.62%
D159M	-6.05%
I172P	-7.54%
I12T	-0.812%
I162R	-1.93%
T173V	10.4%
E67V	41%
E147N	11.2%
E14G	-0.328%
E89D	10.1%
A35K	-2.57%
F103M	1.22%
P146I	30.7%
R113V	28%
Q31P	0.0971%
R98K	30.9%
R113T	15.5%
D97N	29.1%
I172K	0.0412%
H34C	34.8%

Block 2 — method: RNA Bind-n-Seq; form: RNA; matrix: in vitro; concentration: 200 nM; setting: whole 134-nt RNA, ends assumed; with: 150 mM KCl; baseline: input library; direction: higher = stronger binding
Target: Fragile X messenger ribonucleoprotein 1, C-terminal low-complexity region (Fmr1, Mus musculus, UniProt P35922)
Constant ends, left off below: GGGAGUUCUACAGUCCGACGAUC … UGGAAUUCUCGGGUGUCAAGG
Strand	log2 enrichment
CCUGUGCUACACAUCGUAUGUACCGAAUCGGCCCCCCCGGGCCCCCCCGGGCCCCCCCGGGAAAGUAUUAUGUUACGCCGUUCGGAUCUG	-0.811
UGGGAGGUGGAUUUUGUUUAUUUUUUUAGCUCAUUUCCAGGGGUGGGAAUUUUUUUGUAAUAUGUGUCAUGAAUAAAGUUGUUUUUGAAA	0.44
CCUGUGCUACACAUCGUAUGUACCGAAUCGGAAAAAAAGGAAAAAAAGGGGAAAAAAAGGAAAGUAUUAUGUUACGCCGUUCGGAUCUGC	-0.738
CUCAAGUCCUGUGCUACACAUCGUAUGUACCGAAUCGGAAGGGAAGGAAGGGGAAAGUAUUAUGUUACGCCGUUCGGAUCUGCACUUCCA	0.15
UCAAGUCCUGUGCUACACAUCGUAUGUACCGAAUCGGAAAGGAGGAAAAAAAGGAAAGUAUUAUGUUACGCCGUUCGGAUCUGCACUUCC	-0.524
CAAGUCCUGUGCUACACAUCGUAUGUACCGAAUCGGGGCCCCGGCCCCGGCCCCGGAAAGUAUUAUGUUACGCCGUUCGGAUCUGCACUU	-0.644
CCUCAAGUCCUGUGCUACACAUCGUAUGUACCGAAUCGGUUGGUUGGGUUGGGAAAGUAUUAUGUUACGCCGUUCGGAUCUGCACUUCCA	-0.0697
AAGUCCUGUGCUACACAUCGUAUGUACCGAAUCGGGGUUUUUGGGGUGGGGUGGGGAAAGUAUUAUGUUACGCCGUUCGGAUCUGCACUU	1.34
GUCCUGUGCUACACAUCGUAUGUACCGAAUCGGCCCCCGGGCCCCCGGGGCCCCCGGGGAAAGUAUUAUGUUACGCCGUUCGGAUCUGCA	-0.93
CCUCAAGUCCUGUGCUACACAUCGUAUGUACCGAAUCGGGGCGGGCGGGCGGAAAGUAUUAUGUUACGCCGUUCGGAUCUGCACUUCCAG	1.3
UUUGAAGGUGAUUUCUGGCCCAAUGUGUUAGAAGAGAGCAUUAAGGAACUAGAACAAGAAGAAGAGGAGAGGAAAAAGGAAGAGAGCACU	-0.335
GUCCUGUGCUACACAUCGUAUGUACCGAAUCAAACCCCCCCAAACCCCCAAAUUUAAAAAAGUAUUAUGUUACGCCGUUCGGAUCUGCAC	-0.168
CCUGUGCUACACAUCGUAUGUACCGAAUCGGAAAAAAGGGAAAAAAGGGGAAAAAAGGGGAAAGUAUUAUGUUACGCCGUUCGGAUCUGC	-0.538
UGGAGGAGCCAUAGAAUAUUAAGGAUGAAUUCAGGAAGGCCUGAGACCAUGGAAAACUUGCCUGCUCUCUACACUAUUUUCCAAGGAGAG	-0.747

Block 3 — method: protein binding microarray; form: double-stranded DNA, one strand shown; matrix: in vitro; concentration: not given; baseline: not given; direction: higher = stronger binding
Target: Histone acetyltransferase KAT6A, winged helix 2, GST fusion (KAT6A, Homo sapiens, UniProt Q92794, residues 85-181)
Setting: 8-mer, flanks averaged, mean of 2 arrays, mostly near background
Residues (chain): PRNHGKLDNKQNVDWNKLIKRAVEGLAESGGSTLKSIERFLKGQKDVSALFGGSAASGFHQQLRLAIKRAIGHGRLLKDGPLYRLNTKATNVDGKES
Strand	E-score
TCGGGTAA	-0.103
CCGTTCGC	0.00338
CCAGGGCC	-0.0458
AAACGCGC	0.00642
ATGAGTAG	-0.13
ATAAGTGC	-0.142
TCCATCGA	0.0456
CTTTTACA	0.0151
ATAGCGTA	-0.123
CTCGAACA	-0.0541
CTGCCAAG	-0.113
AGTATTAC	-0.0235
ACTTGATA	0.0815
GCTCTCCC	0.0928
CTGTTATA	-0.0572
TCTTACAA	-0.0401
AATTACAG	0.0165
CATCAGCC	0.0738
AAGATGAC	0.0305
CGCCGACG	0.135
CTCAGTGA	-0.022
GGTTCCGA	0.0884

Block 4 — target: CCNE2, cyclin fold, Cln2 fusion (human); method: yeast growth competition, sequencing; matrix: yeast; setting: strong parent motif; baseline: not given; direction: higher = stronger binding
Starting sequence: RBL2 docking peptide (human); STTRRRLFVENDS; partner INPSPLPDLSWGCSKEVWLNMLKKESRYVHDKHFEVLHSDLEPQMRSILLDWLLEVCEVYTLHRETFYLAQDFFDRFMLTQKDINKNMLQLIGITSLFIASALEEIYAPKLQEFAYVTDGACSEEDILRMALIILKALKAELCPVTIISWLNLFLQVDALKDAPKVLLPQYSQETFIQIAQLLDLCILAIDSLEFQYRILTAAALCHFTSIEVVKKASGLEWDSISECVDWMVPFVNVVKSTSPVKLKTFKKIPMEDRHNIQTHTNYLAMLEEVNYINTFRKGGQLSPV
Variant	normalised enrichment score
R4G	-0.373
R4N	1.04
T3R	0.889
V9K	3.4
R6M	1.59
R5W	0.626
R6T	0.396
R6W	0.773
S1A	3.61
N11P	4.56
D12C	3.17
E10G	3.05
S13I	4.47
D12R	2.97
S1H	3.86
T2P	2.74

Block 5 — target: CEBPA, bZIP domain (human); method: DHFR protein complementation; matrix: yeast; baseline: wild-type JUN-FOS pair; direction: higher = stronger binding
Setting: single substitutions, most at no-binding floor
Starting sequence: JUN, bZIP domain (human); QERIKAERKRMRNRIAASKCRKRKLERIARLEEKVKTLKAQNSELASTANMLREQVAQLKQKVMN; partner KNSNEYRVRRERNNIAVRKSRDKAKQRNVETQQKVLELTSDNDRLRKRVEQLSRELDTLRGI
Variant	binding fitness
L31A	-1.49 natural log
M51I	-1.5 natural log
V35C	-1.44 natural log
S47E	-1.37 natural log
K34V	-1.37 natural log
E33G	-1.51 natural log
Q55M	-1.38 natural log
L45N	-1.54 natural log
A57T	-1.51 natural log
R53S	-1.33 natural log
L45V	-1.5 natural log
K39A	-1.38 natural log
S47D	-1.43 natural log
R53Y	-1.4 natural log
T48R	-1.42 natural log
A29C	-1.47 natural log
N42L	-1.48 natural log
K39W	-1.53 natural log
E54D	-1.43 natural log
Q41W	-1.39 natural log
K36V	-1.5 natural log
A57W	-1.51 natural log
A29E	-1.25 natural log
R30F	-1.52 natural log
K36W	-1.48 natural log

Block 6 — method: aptamer microarray, sandwich; form: DNA with 2'F-ANA; matrix: in vitro; concentration: 200 nM; with: Cy3 exosite-II aptamer, 400 nM; direction: higher = stronger binding; strand: GGTTGGTGTGGTTGG
Target: Prothrombin, mature alpha-thrombin (F2, Homo sapiens, UniProt P00734)
Setting: whole 15-mer aptamer, many near background
Modification	mean fluorescence intensity
2'F-ANA at 1 2 5 6 9 14	42.4 a.u.
2'F-ANA at 2 3 4 6 9 10 12 13 15	209 a.u.
2'F-ANA at 2 4 5 10 12 13	115 a.u.
2'F-ANA at 1 2 6 7 10 11 13 15	51.3 a.u.
2'F-ANA at 3 4 5 6 10 12 13	72.7 a.u.
2'F-ANA at 2 3 5 8 9 10 12 13 14	54.1 a.u.
2'F-ANA at 1 2 3 8 9 10 11 13 14 15	53.1 a.u.
2'F-ANA at 2 3 4 6 7 10 11 13	191 a.u.
2'F-ANA at 3 4 5 6 7 8 9 10 14	47.3 a.u.
2'F-ANA at 3 4 5 8 13 14 15	49.7 a.u.
2'F-ANA at 2 7 8 10 14	89 a.u.
2'F-ANA at 1 3 4 5 6 10 11 12 13 15	48 a.u.
2'F-ANA at 5 9 10	48.2 a.u.
2'F-ANA at 2 4 5 8 11 13 14 15	51.9 a.u.
2'F-ANA at 2 4 6 9 10 13 14	59.3 a.u.
2'F-ANA at 2 3 6 7 15	754 a.u.
2'F-ANA at 1 3 4 7 9 10 11 12 13	103 a.u.

For quick reference, copied from above (block 4):
Variant	normalised enrichment score
R4G	-0.373
R4N	1.04
T3R	0.889
V9K	3.4
R6M	1.59
R5W	0.626
R6T	0.396
R6W	0.773
S1A	3.61
N11P	4.56
D12C	3.17
E10G	3.05
S13I	4.47
D12R	2.97
S1H	3.86
T2P	2.74
